Experimental data gathered from unrelated publications.
Numbered parts are unrelated; each lists some results of a single study.

Study 1
Target: Sal-like protein 4, full length isoform A (SALL4, Homo sapiens, UniProt Q9UJQ4, residues 1-1053)
Chain of UniProt Q9UJQ4 (whole entry, looked up): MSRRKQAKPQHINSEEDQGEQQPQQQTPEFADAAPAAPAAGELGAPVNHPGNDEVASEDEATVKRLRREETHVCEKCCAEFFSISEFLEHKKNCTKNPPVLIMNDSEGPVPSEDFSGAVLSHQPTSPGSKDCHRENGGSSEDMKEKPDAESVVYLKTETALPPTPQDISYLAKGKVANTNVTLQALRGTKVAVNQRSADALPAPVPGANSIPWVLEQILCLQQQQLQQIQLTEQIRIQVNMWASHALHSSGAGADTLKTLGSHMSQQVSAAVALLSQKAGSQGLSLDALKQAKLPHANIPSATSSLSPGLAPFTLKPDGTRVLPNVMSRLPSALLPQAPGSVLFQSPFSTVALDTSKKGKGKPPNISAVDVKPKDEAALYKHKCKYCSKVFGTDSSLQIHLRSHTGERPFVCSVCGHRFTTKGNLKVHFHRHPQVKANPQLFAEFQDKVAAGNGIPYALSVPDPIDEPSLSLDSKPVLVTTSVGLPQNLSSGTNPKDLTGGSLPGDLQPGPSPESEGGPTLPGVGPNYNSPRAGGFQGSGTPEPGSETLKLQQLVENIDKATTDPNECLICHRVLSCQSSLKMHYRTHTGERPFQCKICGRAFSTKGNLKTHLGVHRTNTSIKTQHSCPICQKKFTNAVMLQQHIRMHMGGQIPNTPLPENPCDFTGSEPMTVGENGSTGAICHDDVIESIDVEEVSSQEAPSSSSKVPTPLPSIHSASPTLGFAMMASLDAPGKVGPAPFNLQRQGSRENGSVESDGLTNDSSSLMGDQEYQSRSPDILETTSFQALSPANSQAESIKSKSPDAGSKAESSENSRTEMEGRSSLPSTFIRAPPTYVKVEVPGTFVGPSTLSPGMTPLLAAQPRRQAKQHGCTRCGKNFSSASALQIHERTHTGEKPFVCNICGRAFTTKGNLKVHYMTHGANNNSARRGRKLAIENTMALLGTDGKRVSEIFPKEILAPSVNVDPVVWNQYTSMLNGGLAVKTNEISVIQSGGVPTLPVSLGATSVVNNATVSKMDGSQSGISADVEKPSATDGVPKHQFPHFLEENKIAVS
Technique: universal PBM
Molecule type: double-stranded DNA, one strand shown
Medium: in vitro
Concentration: 600 nM
Notes: 8-mer, flanks averaged, mean of replicates
Direction: higher = stronger binding
| Sequence | E-score |
| --- | --- |
| AATAGTAG | 0.247 |
| GACAACCA | 0.0563 |
| CTTGTCAA | 0.234 |
| GAAGTATA | 0.255 |
| GATACAGA | 0.0367 |
| CACCGTCC | -0.297 |
| ATGCGTGA | -0.0729 |
| AAGCGAGT | -0.00173 |
| GGCCGGCA | -0.275 |
| CAAGCAGG | -0.173 |
| AACACGCT | 0.00315 |
| AACCATAG | 0.0369 |
| ATCAACGG | 0.0551 |
| CAATATGC | 0.184 |
| CTGGAAGC | -0.288 |
| ATATCGGA | 0.268 |
| AAAGCGAT | 0.102 |
| GCATAATA | 0.407 |
| AAACACGT | 0.0806 |
| CACGATAC | 0.0493 |
| CCTGTGAC | -0.156 |

Study 2
Target: RNA binding protein fox-1 homolog 2, RRM domain, GST-SBP tag (RBFOX2, Homo sapiens, UniProt O43251-10, residues 100-194)
Technique: RNA Bind-n-Seq
Molecule type: RNA
Medium: in vitro
Concentration: 365 nM
Notes: natural RNA segment, single round, ends assumed
Reference: no-protein control
Direction: higher = stronger binding
Construct (chain): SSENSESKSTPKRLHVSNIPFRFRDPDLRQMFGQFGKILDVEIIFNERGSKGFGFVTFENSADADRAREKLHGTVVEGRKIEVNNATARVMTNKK
| Sequence | RBNS enrichment (R) |
| --- | --- |
| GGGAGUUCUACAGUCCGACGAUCAGACUGUAUCUGUCUACUUUGUGUGACUGUUUUGAGGGACUGUCCCAUCAGUGAACAGAUUGCAUGGCCUUGGAGAGAGACUCUGGGCUUCUGGCUCAGAUGUGUGCAUCUGGAAUUCUCGGGUGCCAA | 2.26 |
| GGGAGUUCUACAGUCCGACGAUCGUGCAACUUUCAGGAACUUUACUGCAGGUCAGUUAAACACAACUGUUACUGAAAACUAGAUGUAAACUUAAGUAUUUAGAACAAAAACUACUAGUAAAUACUCAGAACUCUGGAAUUCUCGGGUGCCAA | 0.476 |
| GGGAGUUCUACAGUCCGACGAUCUCACUGGCCCUACAACUGCCUUAGAGGAGUCAGCUGUCCAGUUUUAGAUCCCAGGAGUCACAGCAGAGCCUUGCAGUCAUUUCACAUGCGCAGACUCUGGAGAGAGCAAAUGGAAUUCUCGGGUGCCAA | 0.297 |
| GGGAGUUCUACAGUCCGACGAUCAAUGCUGUGUUUGUUGUAAAGGUUUCCAGGACUGAGACCUUAUUCCCUGGGCUUCGUGAAAUGGCACAGUCAUUGGUAAUCUUCAAAAAGCCAGAAGCCCAGGACCUCCUUGGAAUUCUCGGGUGCCAA | 0.641 |
| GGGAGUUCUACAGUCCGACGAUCUCUUGUGUGCCUUCUGAGCUGUUUCUUCAGCCUAGAAACUCCCUGCUCAAAGGCACCUUUGCUUUUGUGAACUCGUUCACCCUAUCCUGUCUCCCCCAGGAUUGCCCCCCUGGAAUUCUCGGGUGCCAA | 0.435 |
| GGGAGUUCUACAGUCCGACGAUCCUGCCCUCCUUAGACCUGAGGGACCCUUCGAGAUCAUCACUUCCUUGCCCCCAUUUCACCCAUGGGGAGACAGUUGAGAGCGGGGAUGUGACAUGCCCAAGGCCACGGAGUGGAAUUCUCGGGUGCCAA | 0.269 |
| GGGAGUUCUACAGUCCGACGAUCCAAUAGGUAUUAUUUUAUCCCCCAUUUUAUAAAUGAGGAAACGGAGGCUUAGUUGAGUGAGCUGACCAAUAUCACCCAGCCAGUAUGUGAUAAAACUGAUUCUGACCCACUGGAAUUCUCGGGUGCCAA | 0.402 |
| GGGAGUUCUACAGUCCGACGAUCAUCUGGACUGGUAAAAUCUUGAUGAGGCUCAUAAAAUGAGUUUGGGAAUUGUGUAUAGCUGAUUUUUUGUGGGAAACUGUUUACUUCAUUCAAAGGUUCUUGAGACUCUUUGGAAUUCUCGGGUGCCAA | 0.747 |

Study 3
Target: RING finger protein unkempt homolog, zinc fingers 1-6, GST-SBP tag (UNK, Homo sapiens, UniProt Q9C0B0, residues 30-357)
Chain of UniProt Q9C0B0 (30-357, looked up): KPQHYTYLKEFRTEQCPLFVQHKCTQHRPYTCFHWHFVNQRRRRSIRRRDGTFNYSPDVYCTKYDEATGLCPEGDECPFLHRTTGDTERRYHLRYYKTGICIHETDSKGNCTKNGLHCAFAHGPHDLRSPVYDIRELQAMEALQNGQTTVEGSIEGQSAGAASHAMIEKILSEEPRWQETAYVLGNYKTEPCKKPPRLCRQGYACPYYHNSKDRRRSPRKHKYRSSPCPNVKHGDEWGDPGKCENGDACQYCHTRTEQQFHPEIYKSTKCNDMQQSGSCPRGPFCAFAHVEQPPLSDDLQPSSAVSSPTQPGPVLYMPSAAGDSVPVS
Technique: RNA Bind-n-Seq
Molecule type: RNA
Medium: in vitro
Concentration: not given
Notes: RNA with constant flanks, ends assumed
Reference: input RNA pool
Direction: higher = stronger binding
| Sequence | bound/input enrichment |
| --- | --- |
| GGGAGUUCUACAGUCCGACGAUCUAUGAUCAAGUUCUUGUGGAGUCAGACAAUGAGAACCGCAUGGAGGAGAGCAAAGCACUCUUCCGAACAAUUAUCACCUACCCCUGGUUCCAGAACUCCUCUGUGAUUCUGUUCUUAAACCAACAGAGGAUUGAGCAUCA | 0.164 ratio |
| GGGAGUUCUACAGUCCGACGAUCCUCCUGUAAUCACUUUUGGAGGGCUGCUUGGAGAAGCUACAGAAGGCAGAAUAAGUGCAACCGAGUCUCUUUUUGGAGCGUCAUUAACUGGGAUUGCCUAUUCAUUGUUUGCUGGGCAACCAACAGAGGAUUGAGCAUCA | 0.161 ratio |
| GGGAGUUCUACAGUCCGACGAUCGAAACAGAAUUAAAACAUUUCCACUGGGUUUCGCCUGUAAGAAAAAGUGUACCUGAGCACACCGCUUUUUAAUAGCACUAACCAAUGCCUUUUUAGAUGUAUUUUUGAUGUAUAUAUCUACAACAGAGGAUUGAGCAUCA | 3.71 ratio |
| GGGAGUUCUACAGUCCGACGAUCGGAUUUGGAGAUGCAGUGGAUAAUAGUAAUUGCUGGCAGCCUGUUAUCGACUACAUUGACCGUAAAUUUGAAGAUUACUUAAAUGCAGAAUCUCGAGUGAACAGACGUCAGAUGCCUGAUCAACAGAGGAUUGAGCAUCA | 0.267 ratio |
| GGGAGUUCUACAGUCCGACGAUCGUCCUUAUUGAUCCUUUUUCUUGGCGUUACCAUUUUUGAAGCAAAGUUAACCUAGCUUUCCCGUUUGAGCUUUCUUUUUGGCCGUCUUUAAAAAAAUUUUUUUUUUUAAUCUAUAAAAUACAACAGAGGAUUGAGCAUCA | 1.64 ratio |
| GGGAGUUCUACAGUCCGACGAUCUAUUCACAACUUGGAACAUUUGCACCAGUAUGGGAUGUAUUCAAAACAUCUACAGAGAAAUCCGCAAAUUGUCACUUGGAUCUUGUUAGAAAAUUACAAGAAUUAAUAAAGGAAGUUCAGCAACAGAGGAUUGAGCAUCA | 0.665 ratio |
| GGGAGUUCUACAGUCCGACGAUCUCCUUUCAGUUUUUAUUAAUCUACUGUAUCAAUAAAAUUCUGUAAUUUGAAUGAGUUUUUAACCGUCCCGAAUGUUAUUGUGUAUAGAUAUUUCCUCUUGAACGUUAUGUUCAGAAAAUGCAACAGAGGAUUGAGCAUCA | 0.746 ratio |
| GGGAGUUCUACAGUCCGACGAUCUCCCGCCUACAGAAAGAUUUUGAGAGACAUUUUAAGGACCUCAGGUUCAUUAAAAAGGACUCCGAACUUUUCUCAAAUCCAUUUAGCUUUAAACCGGAAUAUGCGCCUAUUUCUGUAAGACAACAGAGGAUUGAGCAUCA | 2.77 ratio |

Study 4
Target: Ras GTPase-activating protein-binding protein 1, C-terminal RGG region (G3BP1, Homo sapiens, UniProt Q13283)
Chain of UniProt Q13283 (whole entry, looked up): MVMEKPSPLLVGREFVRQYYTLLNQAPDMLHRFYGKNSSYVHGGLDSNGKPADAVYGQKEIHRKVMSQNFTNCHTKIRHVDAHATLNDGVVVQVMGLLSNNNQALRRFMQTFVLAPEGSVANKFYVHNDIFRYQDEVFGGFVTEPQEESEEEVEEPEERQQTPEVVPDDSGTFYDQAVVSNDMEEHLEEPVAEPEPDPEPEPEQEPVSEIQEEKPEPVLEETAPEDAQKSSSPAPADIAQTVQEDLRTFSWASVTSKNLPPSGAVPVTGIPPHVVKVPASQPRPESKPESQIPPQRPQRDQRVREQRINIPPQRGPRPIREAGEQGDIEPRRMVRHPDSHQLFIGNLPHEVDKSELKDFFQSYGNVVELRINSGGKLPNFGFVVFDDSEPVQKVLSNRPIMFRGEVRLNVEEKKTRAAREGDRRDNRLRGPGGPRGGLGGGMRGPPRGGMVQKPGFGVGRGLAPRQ
Technique: RNA Bind-n-Seq
Molecule type: RNA
Medium: in vitro
Concentration: 1 µM
Notes: whole 134-nt RNA, ends assumed
Together with: 150 mM KCl
Reference: input library
Direction: higher = stronger binding
| Sequence | log2 enrichment |
| --- | --- |
| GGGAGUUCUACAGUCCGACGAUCCACAGACAACACACACCCACACAGACACAGAGGGAAGGGGUUGGGAUGGGGACAGGGUGCACAGCAGGGCGGGGUAGGACCCCAGCCCCUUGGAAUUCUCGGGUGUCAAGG | -0.394 |
| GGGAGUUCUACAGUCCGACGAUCUGGCCCUGGUGGCAUGCGGGGAGGAAGAGGCGGCCUCAUGGAUCGUGGUGGUCCCGGUGGAAUGUUCAGAGGUGGCCGUGGUGGAGACAGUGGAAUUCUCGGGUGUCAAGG | 2.19 |
| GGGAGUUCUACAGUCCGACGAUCAAGUCCUGUGCUACACAUCGUAUGUACCGAAUCGGGUUUGGGAAAGGGAAAAAGGGAAAGUAUUAUGUUACGCCGUUCGGAUCUGCACUUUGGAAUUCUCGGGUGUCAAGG | 1.43 |
| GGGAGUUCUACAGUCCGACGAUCCAAGUCCUGUGCUACACAUCGUAUGUACCGAAUCGGGAAAGGGAAAGGGGAAAGGAAAGUAUUAUGUUACGCCGUUCGGAUCUGCACUUCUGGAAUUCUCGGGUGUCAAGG | -1.22 |
| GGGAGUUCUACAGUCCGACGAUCGCAGGAAGUAAAAACAAAUGGAAAUGCUUCGGAUAGUGGCAGGGGUGGGGGUUGCUAAGGAAAGGGUGGGAUGGGAGUGGUUAAAGAGUUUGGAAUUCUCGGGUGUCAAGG | 1.71 |
| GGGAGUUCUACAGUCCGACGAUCGCAGGAAGUAAAAACAAAUGGAAAUGCUUCGGAUAGUGGCAGGGGUGGGGGUUGCUAAGUAAAGGGUGGGAUGGGAGUGGGUAAAGAGUUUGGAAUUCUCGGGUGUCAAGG | 1.82 |
| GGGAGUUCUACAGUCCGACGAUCCAAGUCCUGUGCUACACAUCGUAUGUACCGAAUCGGCCCCGGCCCCGGGCCCCGGGAAAGUAUUAUGUUACGCCGUUCGGAUCUGCACUUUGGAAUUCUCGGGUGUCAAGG | -2.05 |
| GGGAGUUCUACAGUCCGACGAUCAGUCCUGUGCUACACAUCGUAUGUACCGAAUCGGGGAGGGGUUUUUGGGGUUUGGGGAAAGUAUUAUGUUACGCCGUUCGGAUCUGCACUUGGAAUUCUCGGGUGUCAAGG | 0.746 |
| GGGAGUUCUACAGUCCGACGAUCUGUCUUUCCUGGUGACUAGGAUGUCGUCGGAGGAGGACAAGAGCGUGGAGCAGCCGCAGCCGCCGCCACCACCCCCCGAGGAGCCUGGAGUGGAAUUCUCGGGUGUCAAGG | -1.15 |

Repeated from above (study 1):
| Sequence | E-score |
| --- | --- |
| CACCGTCC | -0.297 |
| ATGCGTGA | -0.0729 |
| AAGCGAGT | -0.00173 |
| GGCCGGCA | -0.275 |
